Measured values of several laboratories.
Protocols differ between the studies behind these lines. ± gives the spread as reported.
Cell line: PANC-1

Cn1nnc2c(C(N)=O)ncn2c1=O has an IC50 of 50.1 µM (cell proliferation, MTS; 72 h, with: 10 µM HNL).
The IC50 of O=c1[nH]nc(O)c2c(-c3ccc(Br)cc3)c3n(c12)CCn1cccc1-3 is reported as 73.9 µM (cell growth or viability, MTT; 48 h).
With COc1ccc(-c2ccsc2)c(/C=N/NC(=O)c2ccccc2O)c1O the IC50 was 0.393 µM (cell growth or viability; 72 h).
With C=CCc1ccc(O)c(-c2ccc(O)c(CC=C)c2)c1 the IC50 was 5.01 µM (cell proliferation, MTS; 72 h, with: temozolomide 250 µM).
With O=C(N/N=C/c1c(O)ccc2ccccc12)c1ccccc1O the IC50 was 1.07 µM (cell growth or viability; 72 h).
For COC(=O)c1c(-c2ccccc2O)c2n(c1C(=O)OC)CCn1cccc1-2, the IC50 was 20.28 ± 0.01 µM (cell proliferation, MTT; 48 h).
CC[C@H](C)C(=O)O[C@H]1C[C@@H](C)C=C2C=C[C@H](C)[C@H](CC[C@@H]3C[C@@H](O)CC(=O)O3)[C@H]21 gave an IC50 of 48.8 µM (cell growth, SRB; 72 h, 10% FBS).
The IC50 of COc1ccc(-c2ccoc2)c(/C=N/NC(=O)c2ccccc2O)c1O is reported as 0.765 µM (cell growth or viability; 72 h).
The IC50 of O=c1[nH]nc(O)c2c(-c3ccc(F)cc3)c3n(c12)CCn1cccc1-3 is reported as 66.4 µM (cell growth or viability, MTT; 48 h).

Excerpt of the above:
With C=CCc1ccc(O)c(-c2ccc(O)c(CC=C)c2)c1 the IC50 was 5.01 µM (cell proliferation, MTS; 72 h, with: temozolomide 250 µM).
